Measurements of several laboratories.
Parts stem from different laboratories: compare values within a part only.

Block 1 — technique: protein binding microarray; molecule type: double-stranded DNA, one strand shown; sample: in vitro; concentration: not given; baseline: not given; reading: higher = stronger binding
Target: Histone acetyltransferase KAT6A, both winged helices, GST fusion (KAT6A, Homo sapiens, UniProt Q92794, residues 1-181)
Setting: 8-mer, flanks averaged, mean of 2 arrays, mostly near background
Target sequence (chain): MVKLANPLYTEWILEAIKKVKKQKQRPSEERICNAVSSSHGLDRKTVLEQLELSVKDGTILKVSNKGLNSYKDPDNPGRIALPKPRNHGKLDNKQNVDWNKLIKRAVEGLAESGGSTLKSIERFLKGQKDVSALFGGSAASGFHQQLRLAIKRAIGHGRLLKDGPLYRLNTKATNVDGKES
For `CGAGCTTA`, the E-score was -0.101.
`CCAAGAGG` has an E-score of -0.217.
`CCACGGCG` has an E-score of 0.338.
`GGGTCTTA` gave an E-score of 0.0678.
`GGTGGTCA` has an E-score of -0.0165.
With `ATGAGTCG` the E-score was -0.142.

Block 2 — technique: competition protein-binding microarray; molecule type: double-stranded DNA, one strand shown; sample: in vitro; concentration: 2 µM; added: Cbf1 competitor, 0.05 µM; reading: higher = stronger binding
Target: Phosphate system positive regulatory protein PHO4, full length, GST-tagged (PHO4, Saccharomyces cerevisiae, UniProt P07270, residues 1-312)
Setting: whole 60-bp probe, lowest competitor level
Target sequence (chain): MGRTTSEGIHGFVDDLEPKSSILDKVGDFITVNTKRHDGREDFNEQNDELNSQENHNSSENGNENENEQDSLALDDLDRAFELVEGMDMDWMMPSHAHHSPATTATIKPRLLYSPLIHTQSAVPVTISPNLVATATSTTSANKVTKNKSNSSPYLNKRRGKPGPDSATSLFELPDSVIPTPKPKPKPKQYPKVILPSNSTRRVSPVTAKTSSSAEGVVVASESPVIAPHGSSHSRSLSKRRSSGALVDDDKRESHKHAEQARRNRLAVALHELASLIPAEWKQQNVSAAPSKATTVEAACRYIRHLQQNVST
For `GTCTTGTCTCATTGTCACGGCACTTTCCCCACTTCAGTCTTGATTCGCTTGACGCTGCTG`, the fluorescence intensity was 4540 a.u.
With `ACAATAACTGGGAAACCGATCTCCTTGACAGCGGCCGTCTTGATTCGCTTGACGCTGCTG` the fluorescence intensity was 2620 a.u.
The fluorescence intensity of `CTATTCAGGTTTCTGGGCGTGGGACAGTTGGTAACAGTCTTGATTCGCTTGACGCTGCTG` is reported as 7490 a.u.

Block 3 — technique: protein-binding microarray; molecule type: double-stranded DNA, one strand shown; sample: in vitro; concentration: 250 nM; setting: 60-bp whole probe; added: salmon DNA 0.4 mg/ml; baseline: random background probes; reading: higher = stronger binding
Target: Interferon regulatory factor 5, full length, phosphomimetic (IRF5, Homo sapiens, UniProt Q13568-2, residues 1-514, K96S/S451D/S453D/S456D/S462D)
The log fluorescence of `GCCTAGCACTTAGGTATCCGTTTCCTTTAGTGCTAGGTCTTGATTCGCTTGACGCTGCTG` is reported as 1.06 z-score.
The log fluorescence of `GCCTAGCACTTAGGTCTCGTTCTCCTTTAGTGCTAGGTCTTGATTCGCTTGACGCTGCTG` is reported as 0.416 z-score.
`GCCTAGCACTTAGGTATCCTACTGCTCTAGTGCTAGGTCTTGATTCGCTTGACGCTGCTG` gave a log fluorescence of -0.132 z-score.
For `GCCTAGCACTTAGGTATCGGTTTCGGTGAGTGCTAGGTCTTGATTCGCTTGACGCTGCTG`, the log fluorescence was 10 z-score.

Mixed results
The fold induction of `PhoQ, residues 284 288 289 292 302 303 GASLAW` is reported as 20.2 (PhoP, residues 12 14 15 18 19 LHHSG (Escherichia coli, UniProt P23836); Sort-seq, item: YFP reporter; E. coli; PhoQ-PhoP variant library, added: 10 µM Mg2+; baseline: high Mg2+ state, higher = stronger signaling).
